Measurements gathered from unrelated publications.
Compare with care: the assays were run in different laboratories. Several values in a cell are separate wells, animals, samples, runs or records. ± marks the error that the study gave. ≈ marks a conversion by molar mass, not a printed value.

| Compound | cell line | test | system | conditions | how to read | endpoint | value |
| --- | --- | --- | --- | --- | --- | --- | --- |
| CCCC[C@H](N)C(=O)N[C@H]1CSCc2ccc(cc2)-c2ccc(cc2)CSC[C@@H](C(=O)N[C@H](C(N)=O)[C@@H](C)O)NC(=O)[C@H](CCCCN)NC(=O)[C@H](CCCCN)NC(=O)[C@H](CCCCN)NC(=O)[C@H](Cc2ccc(O)cc2)NC(=O)[C@H](CC(N)=O)NC(=O)[C@H](CC(C)C)NC1=O | AsPC-1 (KRAS G12D) | ERK phosphorylation, Western blot, refers to: p-ERK |  | 48 h |  | lowest effective concentration | ≤ 10 µM |
| C=C1C(=O)OC2C1CCC(C)(O)C13C=CC(C)(C21)C1(C3)C(=O)OC2C3C(C)=CCC3C(=C)CC(OC(C)=O)C21 (stereo not shown) | AML12 mouse hepatocytes | lipid accumulation, Nile Red staining |  | maximum safe concentration, 24 h, with: palmitic acid/oleic acid |  | maximum inhibition | 31.6 ± 4.59% |
| CNS(=O)(=O)Nc1nccc(Cc2c(C)c3ccc(Oc4ncccc4F)cc3oc2=O)c1F | YAPC | cell viability |  | 7 days |  | IC50 | > 1000 nM |
| CSCC[C@@H]1NC(=O)[C@H](CC(N)=O)NC(=O)[C@@H](NC(=O)CCOCCOCCOCCNC(=O)CN2CCN(CC(=O)O)CCN(CC(=O)O)CC2)CSSC[C@@H](C(=O)O)NC(=O)[C@H](C(C)C)NC(=O)[C@H](CCSC)NC(=O)[C@@H]2CCCN2C(=O)[C@H]([C@@H](C)O)NC(=O)[C@H](Cc2c[nH]cn2)NC1=O [gallium-68 labelled] | activated human PBMCs |  |  | 60 min |  | cell uptake | 3.14 ± 0.42% |
| COc1cc(/C=C/C(=O)/C=C(O)/C=C/c2ccc(OCC(=O)N3CCOCCOCCOCCOCC3)c(OC)c2)ccc1OCC(=O)N1CCOCCOCCOCCOCC1 | COS-7 | cell growth or viability, SRB |  | 25 µM |  | inhibition | 100% |
| C=C1C(=O)OC2C1CCC(C)(O)C13C=CC(C)(C21)C1(C3)C(=O)OC2C3C(C)C(=O)CC3C(=C)CC(OC(C)=O)C21 (stereo not shown) | AML12 |  |  | concentration not given, with: palmitate/oleate |  | ATP content | increased |
| CC(C)c1ccc(N(C)c2ccc3c(c2)OCC[C@H]3CNc2cnccc2C(=O)O)cc1 | FTC-133 | cell growth or viability, ATP luminescence |  | 7 days |  | IC50 | 7.49 nM |
| COc1cc([C@@H]2O[C@@H](c3cc(OC)c(O[C@@H]4O[C@H](CO)[C@@H](O)[C@H](O)[C@H]4O)c(OC)c3)[C@H](CO)[C@H]2CO)cc(OC)c1O | 3T3-L1 | lipid accumulation, inhibitor, Oil Red O staining |  | maturation stage |  | lowest effective concentration | 20 µM |
| CN1CCCNC(=O)c2cccc(c2)C(=O)NCCCN(C)CCCNc2cccc3c2C(=O)c2cccc(c2C3=O)NCCC1 | SAS | RNA-Seq, refers to: ZNRF2 mRNA |  | 1 µM, 6 h | relative to: untreated cells | log2 fold change | -0.943 |
| COC(=O)c1cc(NC2=NC(=O)C(=Cc3ccc(N(C)C)cc3)S2)ccc1OC(C)=O | MCF7 | GC-MS, refers to: L-Isoleucine |  | 1 µM | relative to: DMSO | metabolite level | 0.09 fold change |
| Cn1ncc(-c2ccc3c(=O)[nH]nc(CN)c3c2)c1-c1c(F)c(Cl)cc(OC2CC2)c1C#N | MOLP-8 | cell viability, inhibitor, CellTiter-Glo |  | 120 h, baseline-subtracted |  | IC50 | 160 nM |
| Cc1cc(NC2CCN(C)CC2)ccc1-c1cc2c(N3CCC[C@H](C(=O)N[C@H](C)c4ccccc4)C3)ncnc2[nH]1 | KARPAS-299 | cell growth or viability, MTT |  | 5 µg/mL, 72 h |  | inhibition | 88.6% |
| COc1cc(/C=C2\CNC/C(=C\c3cc(Cl)c(O)c(OC)c3)C2=O)cc(Cl)c1O | BV-2 | Western blot |  | concentration not given, with: LPS | relative to: LPS alone | Nrf2 protein level | increased |
| Cc1ccc(-n2cc(CSc3nc4ccccc4n3Cc3cn(-c4ccc(C)cc4)nn3)nn2)cc1 | HEK293 | MTT |  | 62.5 ppm |  | cytotoxicity | 70.6% |
| O=S(=O)(C1CC2OC1C(c1ccc(O)cc1)=C2c1ccc(O)cc1)N1CCc2ccccc21 (stereo not shown) | MCF7 3xERE-luc, steroid-deprived | ERE luciferase reporter, agonist |  |  | relative to: vehicle | Emax | 10% |
| O=C(N1CCCC1)n1cc(-c2ccc(-c3ccccc3)cc2)nn1 | mouse T cells | N-terminal labelling proteomics, refers to: OXSR1 N-terminal peptides |  | 0.001 µM, 6 h | relative to: DMSO | SILAC ratio | 1.09 |
| COc1cc(N2CCN(C(=O)C3CCCN3)CC2)ccc1Nc1ncc(Cl)c(Nc2ccccc2P(C)(C)=O)n1 (stereo not shown) | Ba/F3 EML4-ALK | flow cytometry |  | concentration not given, 0.5 h |  | early apoptotic cells | 3.41% and 3.33% and 3.25% |

| Compound | cell line | test | system | conditions | how to read | endpoint | value |
| --- | --- | --- | --- | --- | --- | --- | --- |
| [BH3-][P+]1(c2ccccc2)CCCCC1 | PC-3 | trypan blue |  | concentration not given, 72 h, compound at IC50 | relative to: control | live cells | 50% |
| C=C1C(=O)OC2C1CCC(C)(O)C13C=CC(C)(C21)C1(C3)C(=O)OC2C3C(C)=CC(=O)C3C(C)CC(OC(C)=O)C21 (stereo not shown) | AML12 mouse hepatocytes | lipid accumulation, Nile Red staining |  | maximum safe concentration, 24 h, with: palmitic acid/oleic acid |  | maximum inhibition | 71.4 ± 5.23% |
| Cn1ncc2cc(-c3cncc(Cl)c3N3CCC4(CCNC4=O)CC3)ccc21 | LS174T | gene expression, microarray, refers to: JAK3 mRNA |  | concentration not given, 4 h | relative to: untreated cells | log2 fold change | -1.01 |
| CCCCN1C(=O)c2cccc3c(NCCCCCN4CCOCC4)ccc(c23)C1=O | BHK-21 | confocal microscopy, refers to: lysosome colocalisation |  | 0.2 µM, with: 0.3 µM LysoTracker Deep Red |  | Pearson's correlation coefficient | 0.87 ± 0.04 |
| O=CCNCCOn1c(=O)n(OCCNCCO)c(=O)n(OCCNCCOn2c(=O)n(OCCNCCO)c(=O)n(OCCNCCO)c2=O)c1=O | A549 | cell growth or viability, MTT |  | 100 µg/mL, 24 h |  | viability | 38.3% |
| COC(=O)C1=C(C)Oc2ccc(Br)cc2C1C(C(C)=O)C(=O)OC (stereo not shown) | 3T3-L1 | cell growth or viability, MTT |  | 72 h |  | IC20 | 111 µg/mL (≈ 279 µM) |
| COc1cccc(O)c1C(=O)/C=C/c1ccc2cc(N3CCCC3)ccc2c1 | HK-2 | Nrf2 target genes, refers to: HO-1, NQO1, GCLC, GCLM |  | concentration not given |  | mRNA level | increased |
| CCN(CC)CCNC(=S)Nc1ccc2nc(N3CCN(CC)CC3)cc(C)c2c1 | U2OS SSA-GFP reporter | single-strand annealing, flow cytometry |  | 30 µM |  | GFP-positive cells | 2.43% |
| COc1cccc(OC)c1-c1cc(C(=O)NC2(C(=O)O)C3CC4CC(C3)CC2C4)nn1-c1ccc(C(=O)NCCNC(=O)[C@H](CCCCNC(=O)[C@H](CC(C)C)NC(=O)C2OC2C(=O)O)NC(=O)CN2CCN(CC(=O)[O-])CCN(CC(=O)[O-])CCN(CC(=O)[O-])CC2)cc1C(C)C.[177Lu+3] (mixture of isomers) | HT-29 |  |  | concentration not given, 60 min | relative to: added activity | internalized fraction | 1.62 ± 0.19% |
| CCN(CC)CC(=O)Nc1cccc(-n2cc(-c3ccc4ccc(-c5cn(-c6cccc(NC(=O)CN(CC)CC)c6)nn5)cc4c3)nn2)c1 | RCC4 | PCR angiogenesis array, refers to: NOS3 |  | 5 x IC50, 4 h, normoxia | relative to: untreated | fold regulation | 1.06 |
| CCOc1cncc(-c2ccc(NC(=O)C3(c4ccnc(NS(=O)(=O)C5CC5)n4)CCOCC3)nc2)n1 | colon cancer | cell viability, CellTiter-Glo | DMSO 0.1% | 72 h, line code 94 |  | IC50 | 199 nM |
| CCCCCCC(=O)[O][Pt]([NH2])([NH2])([Cl])([Cl])[O]C(=O)CCC(C)C1CCC2C3CCC4CC(O)CCC4(C)C3CCC12C (stereo not shown) | PC-3 | JC-1 flow cytometry |  | 2 µM, 48 h |  | cells with depolarised mitochondria | 63.9% |
| O=C(C[Se]C(=O)c1cc2ccccc2s1)Nc1cccc(C(F)(F)F)c1 | NCI60 CNS cancer panel | five-dose screen |  |  |  | GI50 | 1590 nM |
| CCN(C(=O)c1cc(F)ccc1Oc1nncnc1N1CCC2(C1)CN([C@H](CCCN(C)CCOC)C(C)C)C2)C(C)C | Kasumi 1 | cell growth or viability |  | 7 days |  | GI50 | > 10000 nM |
| Cc1ncsc1-c1ccc(C(C)NC(=O)C2CC(O)CN2C(=O)C(NC(=O)CCCCCCCCCCN2CCCC(Nc3ncc(Cl)c(Nc4ccccc4S(=O)(=O)C(C)C)n3)C2)C(C)(C)C)cc1 (stereo not shown) | 22Rv1 | RNA-seq, refers to: SLC66A1 mRNA |  | concentration not given | relative to: DMSO | log2 fold change | -1.34 |
| Cc1cc(NC(=O)c2cccc(N)c2)ccc1Nc1nccc(-c2cccnc2)n1 | HEK293 AP1 reporter cells | AP-1 reporter gene, inhibitor |  | 3 µM, 6 h, unit not given, with: PMA | relative to: PMA alone | reporter activity | 0.315 |
| CN(C)c1ccc(-n2cc(COC(=O)[C@]3(C)C=C(C(=O)OC(C)(C)C)C(=O)CC3)nn2)cc1 | HeLa | quantitative western blot |  | concentration not given, 30 (unit not given), with: EGF |  | pERK/ERK ratio | 0.239 |
